{"data": "Assay results of several laboratories", "note": "Each numbered part is a random draw from the data of one study; scales do not carry over between parts. Positions count from the first letter of the parent shown."}
{"data": "Study 1", "target": "Ras GTPase-activating protein-binding protein 1, RRM domain (G3BP1, Homo sapiens, UniProt Q13283)", "technique": "RNA Bind-n-Seq", "molecule type": "RNA", "sample": "in vitro", "concentration": "1 µM", "setting": "whole 134-nt RNA, ends assumed", "added": "150 mM KCl", "baseline": "input library", "direction": "higher = stronger binding", "constant ends, left off below": "GGGAGUUCUACAGUCCGACGAUC … UGGAAUUCUCGGGUGUCAAGG", "sequence of UniProt Q13283 (whole entry, looked up)": "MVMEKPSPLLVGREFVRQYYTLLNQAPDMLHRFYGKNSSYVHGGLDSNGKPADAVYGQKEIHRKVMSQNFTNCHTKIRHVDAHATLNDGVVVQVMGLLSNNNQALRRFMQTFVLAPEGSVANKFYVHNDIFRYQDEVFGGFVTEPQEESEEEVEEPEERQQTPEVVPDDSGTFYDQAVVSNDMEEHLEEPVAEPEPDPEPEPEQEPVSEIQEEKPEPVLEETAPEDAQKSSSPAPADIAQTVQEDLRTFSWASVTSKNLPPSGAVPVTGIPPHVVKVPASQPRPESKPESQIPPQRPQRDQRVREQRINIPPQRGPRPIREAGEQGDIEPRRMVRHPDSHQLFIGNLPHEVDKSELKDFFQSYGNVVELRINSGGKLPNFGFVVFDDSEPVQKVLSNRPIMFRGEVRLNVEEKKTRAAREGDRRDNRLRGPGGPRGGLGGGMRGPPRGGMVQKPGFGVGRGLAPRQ"}
{"Oligonucleotide": "UCAAGUCCUGUGCUACACAUCGUAUGUACCGAAUCGGCCGGGGCCGGGGCCGGGGAAAGUAUUAUGUUACGCCGUUCGGAUCUGCACUUC", "log2 enrichment": -1.76}
{"Oligonucleotide": "AGUCCUGUGCUACACAUCGUAUGUACCGAAUCGGGCCCCCGGCCCCCGGGCCCCCGGGAAAGUAUUAUGUUACGCCGUUCGGAUCUGCAC", "log2 enrichment": -0.712}
{"Oligonucleotide": "GUCCUGUGCUACACAUCGUAUGUACCGAAUCGGGGAAAAAAAGGGGUGGGGUUUGGGGAAAGUAUUAUGUUACGCCGUUCGGAUCUGCAC", "log2 enrichment": 0.862}
{"Oligonucleotide": "UCCUCAAGUCCUGUGCUACACAUCGUAUGUACCGAAUCGGAAGGAAGGAAGGAAAGUAUUAUGUUACGCCGUUCGGAUCUGCACUUCCAG", "log2 enrichment": -0.0873}
{"Oligonucleotide": "AAGUCCUGUGCUACACAUCGUAUGUACCGAAUCGGUUUUUUUGGUUUGGUUUUUGGAAAGUAUUAUGUUACGCCGUUCGGAUCUGCACUU", "log2 enrichment": -0.418}
{"Oligonucleotide": "CUGUGCUACACAUCGUAUGUACCGAAUCGGGGAAAAAAAGGGGAAAGGGGAAAAAAAGGGGAAAGUAUUAUGUUACGCCGUUCGGAUCUG", "log2 enrichment": 0.512}
{"Oligonucleotide": "UCAUGGCUAUCAUUAGCCACAGGUACUGCUGAUUAUAAGGCCAGUAAAAUUUUAGUACCUGGAGGUUUGACUCUAAUUUUUGCACUGAUG", "log2 enrichment": -0.357}
{"Oligonucleotide": "GAGUCCGGUUCGUGUUCGUCCGCGGAGAUCUCUCUCAUCUCGCUCGGCUGCGGGAAAUCGGGCUGAAGCGACUGAGUCCGCGAUGGAGGU", "log2 enrichment": -0.402}
{"Oligonucleotide": "AAGUCCUGUGCUACACAUCGUAUGUACCGAAUCGGGGAGGGGAAAAAGGGGAGGGGAAAGUAUUAUGUUACGCCGUUCGGAUCUGCACUU", "log2 enrichment": 0.922}
{"Oligonucleotide": "UGGCCCUGGUGGCAUGCGGGGAGGAAGAGGUGGCCUCAUGGAUCGUGGUGGUCCCGGUGCAAUGUUCAGAGGUGGCCGUGGUGGAGACAG", "log2 enrichment": 0.67}
{"data": "Study 2", "target": "RING finger protein unkempt homolog, zinc fingers 1-6, GST-SBP tag (UNK, Homo sapiens, UniProt Q9C0B0, residues 30-357)", "technique": "RNA Bind-n-Seq", "molecule type": "RNA", "sample": "in vitro", "concentration": "not given", "setting": "RNA with constant flanks, human and mouse sites, ends assumed", "baseline": "input RNA pool", "direction": "higher = stronger binding", "constant ends, left off below": "GGGAGUUCUACAGUCCGACGAUC … CAACAGAGGAUUGAGCAUCA", "Residues (chain)": "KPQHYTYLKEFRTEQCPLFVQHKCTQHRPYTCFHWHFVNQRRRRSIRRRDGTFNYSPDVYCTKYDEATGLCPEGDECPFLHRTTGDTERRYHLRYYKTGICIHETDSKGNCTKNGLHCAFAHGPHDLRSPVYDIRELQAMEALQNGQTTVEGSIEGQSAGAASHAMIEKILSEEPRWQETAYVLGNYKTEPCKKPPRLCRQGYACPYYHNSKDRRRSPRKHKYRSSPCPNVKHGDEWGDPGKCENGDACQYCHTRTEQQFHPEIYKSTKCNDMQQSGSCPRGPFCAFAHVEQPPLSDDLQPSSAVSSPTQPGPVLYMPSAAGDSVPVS"}
{"Oligonucleotide": "UUAUGUAUCAUUGGUUUUAUAUUCUAUGUAUGUCUUUGUGGGAAAAUAUCUUAUUUAUAUGCUCAUCUAAUUUUCAUAAAAUGCCAAAGUGAAGCCUAAUAACAGUUUCAUAGAUUUACA", "bound/input enrichment [ratio]": 1.16}
{"Oligonucleotide": "AGAGGCGGAACGCGGCGGAGCCCGGGCCGCCCGCGUGUCGGGCGGACGCUGCGAAAAGAUGAAUUUGCAACUGGUUUCCUGGAUUGGAUUGAUCAGUUUGAUUUGUUCUGUAUUUGGCCA", "bound/input enrichment [ratio]": 0.157}
{"Oligonucleotide": "AUAGAGGCAGCACCCGAGUCCCAGAUGAUGCCAGCAAGCGUCUUAACUGGGAACGUUAUCAUAGAAACAAAGUUUUUUGACGACGAUCUUCUUGUAAGCACAUCCAGAGUGAGACUUUUC", "bound/input enrichment [ratio]": 1.52}
{"Oligonucleotide": "ACAGGAUCUGAGUGGACCCGGACAGUACUCAGUCUGAACUCCCGCUCUGAGGCGGAAUCCAUGCCCCCGCCCAGAACCAGUGCCUCUUCGGUGAGUUUGCUGUCUGUGCUGAGACAGCAG", "bound/input enrichment [ratio]": 0.0879}
{"Oligonucleotide": "AAGAACCCCACCACCAGAGAAGUUGGCACACUUGUCCAGCUUGGAGGAGCCAGCUCGGGGGUCAAGCACAGCCCACCCUGCCCCAGGCAUCAUGUGAUGGACUUUUCUGUAUCUGCCCUC", "bound/input enrichment [ratio]": 0.142}
{"Oligonucleotide": "UAGCAGCUAAUGAAGCCCAGCUUCUGAGGAAAAUUCAGUUGUUGUGCCUCAUGGAGAUGACUUUCACACGACCUGCCAAUCACAGACAACUCACUUUUGAAGAAAUUGCCAAAAGUGCUA", "bound/input enrichment [ratio]": 0.091}
{"Oligonucleotide": "GAGAGUGACAUGGCUCUAAGCCAGGGUCAGUGCAUUUUUCUCAACAGGCUAUUCAGAAAAAAAUACCUAUUUUUCAAAUAUUAGUUAGCCAAUAUGACAUUAAAUAGCUGUGUCAUUAAU", "bound/input enrichment [ratio]": 14.2}
{"Oligonucleotide": "CCUAAGGCAAAGAAUUCUCAGGAUUAUCAGGCCUUAACAGUACAUGACAACUUGGCUAUAAAAAUUUGCAAUGAGAUCUUAACAAGUCCAUGCUCACCAGAAAAUCGGGUUUAUACAAAA", "bound/input enrichment [ratio]": 0.181}
{"Oligonucleotide": "UUCGCCUGCGCCAAGCUCGCCCGCACCCCCGCUCUGAUCCGAGCUGGAUCCAGAGUUGCAUAUAGACCAAUUUCUGCAUCAGUGUUAUCUCGGCCAGAGACUAGGACUGGAGAGGGCUCU", "bound/input enrichment [ratio]": 0.253}
{"Oligonucleotide": "UUGUUGGGAUCUAGGCUUCCUUACUUCUGGAGAAGUGGCCAUCCAACACCCACCUGUGCCAUAGAGGGACAGGGCCUCCACAGCUGCCUCUGCUGCUUGUCCUGUCCCCUCAUACCAGAG", "bound/input enrichment [ratio]": 0.132}
{"Oligonucleotide": "GAGUAGUUGAUAGUUGCACUCCCAGUCAUUGAAUUGCUUCUGUGUUUCCCUGUAGGUCCAUAGUAACCCUUUGUCAGUCUUACACAUUUGUAAGGACCCUGCAAGACAGCAACAACGACU", "bound/input enrichment [ratio]": 0.373}
{"data": "Study 3", "target": "CCND2, cyclin fold, Cln2 fusion (human)", "technique": "yeast growth competition, sequencing", "sample": "yeast", "setting": "weak parent motif", "baseline": "not given", "direction": "higher = stronger binding", "parent": "CDC6 docking peptide (human); TLKGRRLVFDNQL"}
{"Substitution": "L2A", "normalised enrichment score": -0.0904}
{"Substitution": "V8K", "normalised enrichment score": 0.154}
{"Substitution": "G4D", "normalised enrichment score": 0.27}
{"Substitution": "Q12F", "normalised enrichment score": -0.125}
{"Substitution": "R5A L7A", "normalised enrichment score": 0.0876}
{"Substitution": "L13I", "normalised enrichment score": 0.138}
{"Substitution": "V8R", "normalised enrichment score": 0.425}
{"Substitution": "N11I", "normalised enrichment score": 0.196}
{"Substitution": "L13F", "normalised enrichment score": 0.54}
{"Substitution": "F9M", "normalised enrichment score": 0.127}
{"Substitution": "L7R", "normalised enrichment score": 0.268}
{"Substitution": "N11G", "normalised enrichment score": 0.138}
{"Substitution": "R6F", "normalised enrichment score": -0.414}
{"Substitution": "N11A", "normalised enrichment score": 0.629}
{"Substitution": "D10S", "normalised enrichment score": 0.837}
{"Substitution": "R5L", "normalised enrichment score": 0.269}
{"Substitution": "G4L", "normalised enrichment score": -0.173}
{"Substitution": "F9S", "normalised enrichment score": 0.0134}
{"Substitution": "R6E", "normalised enrichment score": -0.289}
{"Substitution": "G4M", "normalised enrichment score": 0.571}
{"Substitution": "L13H", "normalised enrichment score": 0.00785}
{"Substitution": "L7V", "normalised enrichment score": -0.0306}
{"Substitution": "R5N", "normalised enrichment score": -0.0418}
{"Substitution": "D10T", "normalised enrichment score": 0.167}
{"Substitution": "T1Q", "normalised enrichment score": 0.0493}
{"data": "Study 4", "target": "Histone acetyltransferase KAT6A, both winged helices, GST fusion (KAT6A, Homo sapiens, UniProt Q92794, residues 1-181)", "technique": "protein binding microarray", "molecule type": "double-stranded DNA, one strand shown", "sample": "in vitro", "concentration": "not given", "setting": "8-mer, flanks averaged, mean of 2 arrays, mostly near background", "baseline": "not given", "direction": "higher = stronger binding", "Residues (chain)": "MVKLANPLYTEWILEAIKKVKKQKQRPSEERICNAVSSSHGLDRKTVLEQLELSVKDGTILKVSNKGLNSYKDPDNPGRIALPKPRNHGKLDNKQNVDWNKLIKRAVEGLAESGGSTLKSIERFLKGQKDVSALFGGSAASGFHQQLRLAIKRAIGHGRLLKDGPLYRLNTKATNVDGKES"}
{"Oligonucleotide": "AAATACCC", "E-score": 0.0228}
{"Oligonucleotide": "ATTGTCCC", "E-score": 0.034}
{"Oligonucleotide": "CGTGTAGC", "E-score": -0.0239}
{"Oligonucleotide": "CAGAACGC", "E-score": 0.202}
{"Oligonucleotide": "ACAGGAGT", "E-score": -0.154}
{"Oligonucleotide": "CTTAGTCA", "E-score": -0.0577}
{"Oligonucleotide": "AAACGCGG", "E-score": 0.211}
{"Oligonucleotide": "ATCAGAGA", "E-score": -0.161}
{"Oligonucleotide": "CGGCCCCG", "E-score": 0.268}
{"Oligonucleotide": "AAGACCAC", "E-score": -0.138}
{"Oligonucleotide": "ACGCAGAC", "E-score": 0.113}
{"Oligonucleotide": "TCGTAAGA", "E-score": -0.02}
{"Oligonucleotide": "GCAAGACA", "E-score": 0.053}
{"Oligonucleotide": "AGCCCTGC", "E-score": -0.103}
{"Oligonucleotide": "ACACTGCC", "E-score": 0.048}
{"Oligonucleotide": "CCCGCGGG", "E-score": 0.398}
{"Oligonucleotide": "CACCATCG", "E-score": -0.12}
{"Oligonucleotide": "CCAGCAAC", "E-score": -0.153}
{"Oligonucleotide": "ATCCGTCA", "E-score": 0.162}
{"Oligonucleotide": "CACAGGAA", "E-score": -0.106}
{"Oligonucleotide": "GCCTTAAC", "E-score": -0.0687}
{"Oligonucleotide": "CTGGCACA", "E-score": -0.138}
{"Oligonucleotide": "ATGATTTG", "E-score": 0.0157}
{"Oligonucleotide": "AAGCACAG", "E-score": -0.164}
{"Oligonucleotide": "AGTTGTGC", "E-score": -0.0835}
{"note": "For quick reference, copied from above (study 1):"}
{"Oligonucleotide": "AGUCCUGUGCUACACAUCGUAUGUACCGAAUCGGGCCCCCGGCCCCCGGGCCCCCGGGAAAGUAUUAUGUUACGCCGUUCGGAUCUGCAC", "log2 enrichment": -0.712}
{"Oligonucleotide": "AAGUCCUGUGCUACACAUCGUAUGUACCGAAUCGGGGAGGGGAAAAAGGGGAGGGGAAAGUAUUAUGUUACGCCGUUCGGAUCUGCACUU", "log2 enrichment": 0.922}
{"Oligonucleotide": "CUGUGCUACACAUCGUAUGUACCGAAUCGGGGAAAAAAAGGGGAAAGGGGAAAAAAAGGGGAAAGUAUUAUGUUACGCCGUUCGGAUCUG", "log2 enrichment": 0.512}
{"Oligonucleotide": "GUCCUGUGCUACACAUCGUAUGUACCGAAUCGGGGAAAAAAAGGGGUGGGGUUUGGGGAAAGUAUUAUGUUACGCCGUUCGGAUCUGCAC", "log2 enrichment": 0.862}
{"Oligonucleotide": "UGGCCCUGGUGGCAUGCGGGGAGGAAGAGGUGGCCUCAUGGAUCGUGGUGGUCCCGGUGCAAUGUUCAGAGGUGGCCGUGGUGGAGACAG", "log2 enrichment": 0.67}
{"Oligonucleotide": "GAGUCCGGUUCGUGUUCGUCCGCGGAGAUCUCUCUCAUCUCGCUCGGCUGCGGGAAAUCGGGCUGAAGCGACUGAGUCCGCGAUGGAGGU", "log2 enrichment": -0.402}
